Assay results collected from several papers.
Compare with care: the assays were run in different laboratories. Values joined by “and” are separate records of one study, mostly repeats; a detail may differ. Numbers after ± are the reported error. ≈ marks a conversion by molar mass, not a printed value.

| SMILES | tested on | assay | system | setting | how to read | quantity | result |
| --- | --- | --- | --- | --- | --- | --- | --- |
| COc1ccc(OCCCO)cc1-c1cn2cc(-c3nnc(NCCCCc4ccccc4)o3)ccc2n1 | Plasmodium falciparum | LDH readout | 3D7 Hyp1-Nluc | 2 µM, 72 h | relative to: DMSO | parasite growth | 53.1% |
| CC(C)n1ncc2c(C(=O)NCC3(C)CNC3)cc(C3CC3)nc21 | coxsackievirus A16 | – | RD | 15 µM | – | cell protection | 101% and 99.2% |
| Cn1cc(-c2ccc(-c3cncc(Cl)c3N3CCC4(CCNC4=O)CC3)cc2)cn1 | COLO 205 | microarray, measured: CASC5 | – | concentration not given, 2 h, gene set AF15q14 | relative to: untreated cells | fold change in expression | -2.8 |
| CC[n+]1c(/C=C/C=C2/N(C)c3ccccc3C2(C)C)sc2ccccc21.[I-] | Drosophila melanogaster | liquid food feeding | – | 40 µg/mL, first instar larvae | relative to: solvent | fluorescein ingestion | -42.3% |
| O=C(NCCN1CCCC1)c1cc(-c2ccc(CN3CCOCC3)cc2)nc2ccc(F)cc12 | Plasmodium berghei | parasite growth, luciferase bioluminescence | HepG2 spheroids infected | 24 h | – | EC20 | 0.38 nM |
| Cc1c2c(nn1C)CSCc1cc(n(C)n1)CSc1cc(c3ccccc3c1)OCCCc1c(C(=O)O)n(C)c3c-2c(Cl)ccc13 | Staphylococcus aureus | broth microdilution | MSSA isolates | – | – | MIC50 | 12.5 µM |
| CO[C@H]1/C=C/O[C@@]2(C)Oc3c(C)c(O)c4c(c3C2=O)C2=NC3(CCN(CC(C)C)CC3)NC2=C(NC(=O)/C(C)=C\C=C\[C@H](C)[C@H](O)[C@@H](C)[C@@H](O)[C@@H](C)[C@H](OC(C)=O)[C@@H]1C)C4=O | Mycobacteroides abscessus | bacterial growth | subsp. abscessus K21 clinical isolate | – | – | IC90 | 7800 nM |
| C[n+]1cccc(C(N)=O)c1 | – | binding, MIDAS equilibrium dialysis LC-MS | A2AR-BRIL thermostabilized | concentration not given | relative to: no-protein control | log2 fold change | -0.0971 |
| CNC(=O)c1cc(Oc2ccc(NC(=O)Nc3ccc(F)c(C(F)(F)F)c3)c(F)c2)ccn1 | Drosophila melanogaster | rescue from lethality | ptc>dRet M955T | concentration not given, 25 °C, compound in food | – | toxicity | not toxic |
| Cc1cc(C(C)(C)C)cc(C)c1CC1=NCCN1 | Drosophila melanogaster | fluorescence | – | liquid food, 40 µg/mL, first instar larvae | relative to: solvent | fluorescein ingestion | 13% |
| Nc1nc(-c2ccccc2)nc2[nH]nc(Nc3ccc(C(F)(F)F)cc3)c12 | coxsackievirus B3 | – | 31-1-93, NMRI mice, CVB3 chronic myocarditis | oral, 100 mg/kg twice daily, day 17, dosed days 0 to 6, score scale 0 to 7 | direction not given | clinical score | 0 |
| O=C1c2ccc(O)c(O)c2C(=O)c2c(O)ccc(O)c21 | Drosophila melanogaster | fluorescence | – | liquid food, 40 µg/mL, first instar larvae | relative to: solvent | fluorescein ingestion | -18.2% |
| CC1CCC(C(C)C)C(OC2=C(Cl)C(=O)c3ccccc3C2=O)C1 (stereo not shown) | Serratia marcescens | – | MTCC 4301 | 10 µg/mL | – | zone of inhibition | 22 mm |
| COc1cc(C(=O)N(C)C)ccc1-c1cc2nccc(-c3ccc4ccncc4c3)c2o1 | Plasmodium falciparum | nanoluciferase readout | 3D7 Hyp1-Nluc | 2 µM, 72 h | relative to: DMSO | parasite growth | 27.7% |
| CC(=O)NC[C@H]1CN(c2ccc(N3CCOCC3)c(F)c2)C(=O)O1 | Staphylococcus aureus | – | MRSA, 10 isolates | pH 8.5 | – | MIC50 | 2 µg/mL |
| CC1CNC(=O)NC1=O (stereo not shown) | – | binding, MIDAS equilibrium dialysis LC-MS | A2AR-BRIL thermostabilized | concentration not given | relative to: no-protein control | log2 fold change | -0.387 |
| C[C@@H]1[C@H](O)[C@@H](C)/C=C/C=C/C=C/C=C/C=C/C=C/C=C/[C@H](O[C@@H]2O[C@H](C)[C@@H](O)[C@H](N)[C@@H]2O)C[C@@H]2O[C@](O)(C[C@@H](O)C[C@@H](O)[C@H](O)CC[C@@H](O)C[C@@H](O)CC(=O)O[C@H]1C)C[C@H](O)[C@H]2C(=O)O | Leishmania major | eosin vital stain | promastigote | 500 µg/mL, 48 h | – | antileishmanial activity | 96.9% and 97.3% and 99.1% |
| COC(=O)[C@@H](NCc1cc2ccccc2nc1OCc1ccccc1)C(C)C | Pseudomonas aeruginosa | – | – | 64 µg/mL, without pentamidine | relative to: control | growth | 93.1% |
| CNS(=O)(=O)c1ccccc1Nc1nc(Nc2cc(OC)c(OC)cc2C)ncc1Br | Plasmodium falciparum | schizont egress, Nluc release | Hyp1-Nluc | 10 x growth EC50, 4 h | – | inhibition | 89.3% |
| NC[C@@H](OCC(=O)N1CCC[C@H](C(=O)NCc2nc(-c3ccc(C(F)(F)F)cc3)cs2)C1)c1ccccc1 | Plasmodium falciparum | SYBR Green growth | asexual blood-stage parasites, 3D7 | 72 h | – | EC50 | 250 ± 76 nM |
| COc1cc(OC)c(CCNC(=O)c2cn3cc(-c4cc(OCC(=O)O)ccc4OC)nc3s2)c(OC)c1 | Plasmodium falciparum | LDH readout | 3D7 Hyp1-Nluc | 2 µM, 72 h | relative to: DMSO | parasite growth | 92.8% |
| C#CCON=C1C=CC(=C(C#N)c2ccccc2)C=C1 | Clavispora lusitaniae | broth dilution | ATCC 34449 | 48 h, 37 °C | – | MFC | 64 µg/mL (≈ 246 µM) |

For quick reference, copied from above:
| SMILES | tested on | assay | system | setting | how to read | quantity | result |
| --- | --- | --- | --- | --- | --- | --- | --- |
| COc1ccc(OCCCO)cc1-c1cn2cc(-c3nnc(NCCCCc4ccccc4)o3)ccc2n1 | Plasmodium falciparum | LDH readout | 3D7 Hyp1-Nluc | 2 µM, 72 h | relative to: DMSO | parasite growth | 53.1% |
